Measurements from different studies.
Every numbered part comes from another study and shows a few of its results, in no order.

Block 1
Target: Sal-like protein 4, full length isoform A (SALL4, Homo sapiens, UniProt Q9UJQ4, residues 1-1053)
Sequence of UniProt Q9UJQ4 (whole entry, looked up): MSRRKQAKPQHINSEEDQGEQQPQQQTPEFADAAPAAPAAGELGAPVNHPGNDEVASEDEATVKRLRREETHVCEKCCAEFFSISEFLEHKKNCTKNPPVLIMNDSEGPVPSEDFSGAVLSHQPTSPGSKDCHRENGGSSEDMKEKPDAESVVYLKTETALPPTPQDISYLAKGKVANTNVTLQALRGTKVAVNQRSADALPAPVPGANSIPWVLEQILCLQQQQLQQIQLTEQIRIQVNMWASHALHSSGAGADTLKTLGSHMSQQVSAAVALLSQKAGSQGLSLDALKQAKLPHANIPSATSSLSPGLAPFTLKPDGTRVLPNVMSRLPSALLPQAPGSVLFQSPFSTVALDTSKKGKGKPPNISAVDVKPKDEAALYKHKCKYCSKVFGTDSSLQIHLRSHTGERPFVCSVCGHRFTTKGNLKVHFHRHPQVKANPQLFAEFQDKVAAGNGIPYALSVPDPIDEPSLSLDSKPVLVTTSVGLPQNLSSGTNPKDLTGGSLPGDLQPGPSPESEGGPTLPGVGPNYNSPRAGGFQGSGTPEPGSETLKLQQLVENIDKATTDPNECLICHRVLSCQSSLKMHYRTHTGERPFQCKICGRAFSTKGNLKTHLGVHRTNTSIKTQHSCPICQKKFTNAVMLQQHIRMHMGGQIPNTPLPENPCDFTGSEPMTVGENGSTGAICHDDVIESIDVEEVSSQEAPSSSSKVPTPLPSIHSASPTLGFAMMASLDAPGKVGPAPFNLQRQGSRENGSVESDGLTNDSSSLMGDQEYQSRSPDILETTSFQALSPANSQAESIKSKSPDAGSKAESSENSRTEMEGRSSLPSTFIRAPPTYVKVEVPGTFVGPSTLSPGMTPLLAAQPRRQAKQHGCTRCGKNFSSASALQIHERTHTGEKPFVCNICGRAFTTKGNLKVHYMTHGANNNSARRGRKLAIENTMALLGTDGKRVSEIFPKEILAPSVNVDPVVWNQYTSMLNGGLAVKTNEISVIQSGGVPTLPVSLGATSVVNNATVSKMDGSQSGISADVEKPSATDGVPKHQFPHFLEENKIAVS
Method: universal PBM
Form: double-stranded DNA, one strand shown
Sample: in vitro
Tested at: 600 nM
Notes: 8-mer, flanks averaged, mean of replicates
Direction: higher = stronger binding
Sequence	E-score
AGAGCTAA	0.0228
AAAACGCG	-0.0331
ACTATTAG	0.158
ACGTCACA	0.0624
AAGAAGGG	-0.14
ACATATTG	0.277
CACGTAAA	0.156
CTCCCCGC	-0.143

Block 2
Target: Replicase polyprotein 1ab, polymerase (rep, Severe acute respiratory syndrome coronavirus 2, UniProt P0DTD1)
Observed: enzyme activity
Mode: inhibitor
Tested at: 20 µM
Compound	inhibition [%]
Cc1cccc(C)c1NC(=O)CN1CCCC1=O	9.37
CN1C(=O)C(N2CCCCC2)S/C1=C\C(=O)O (centres unmarked)	2.85
CCCCCCCCCCCCCCCC(=O)O[C@@H]1[C@@H](O)[C@@H](O)[C@@H]([C@H](NC(=O)[C@@H]2C[C@@H](CCC)CN2C)[C@H](C)Cl)O[C@@H]1SC	-7.88
Oc1c(I)cc(Cl)c2cccnc12	-6.45
CCC[C@H](N[C@@H](C)C(=O)N1[C@H](C(=O)O)C[C@@H]2CCCC[C@@H]21)C(=O)O	-0.64
N#CCC(=O)c1ccccc1	4
COC(=O)[C@H](Cc1cccc(C(=N)N)c1)[C@@H](C)NC(=O)c1ccc(-c2cc[n+]([O-])cc2)cc1	-5.42
CN[C@@H](C)C(=O)N[C@H]1CCCC[C@H]2CC[C@@H](C(=O)N[C@@H](c3ccccc3)c3cn(CCCCc4ccc(CCCCn5cc([C@@H](NC(=O)[C@@H]6CC[C@@H]7CCCC[C@H](NC(=O)[C@H](C)NC)C(=O)N76)c6ccccc6)nn5)cc4)nn3)N2C1=O	-9.13
CCCCC[C@H](O)/C=C/[C@H]1[C@H](O)CC(=O)[C@@H]1C/C=C\CCCC(=O)O	-7.18
CC[C@H]1OC(=O)[C@H](C)[C@@H](O[C@H]2C[C@@](C)(OC)[C@@H](O)[C@H](C)O2)[C@H](C)[C@@H](O[C@@H]2O[C@H](C)C[C@H](N(C)C)[C@H]2O)[C@](C)(O)C[C@@H](C)[C@@H]2N[C@@H](COCCOC)O[C@H]([C@H]2C)[C@]1(C)O	1.03
CC(=O)Nc1cccc(O)c1	6.49
O=C(c1ccc(F)c(F)c1Nc1ccc(I)cc1F)N1CC(O)([C@@H]2CCCCN2)C1	-7.21
C=CCN1CCCC1CNC(=O)c1cc2nn[nH]c2cc1OC (centres unmarked)	-0.17
Nc1cc(Cl)c(N=C2NCCN2)c(Cl)c1	-0.01
Cc1cc2c(cc1C(F)(F)F)N(C(=O)Nc1ccc(Oc3cccnc3C)nc1)CC2	6.08
O=C(O)Cc1ccc(-c2ccccc2)cc1	-1.74
C#CCC(Cc1cnc2nc(N)nc(N)c2n1)c1ccc(C(=O)N[C@@H](CCC(=O)O)C(=O)O)cc1 (some centres unmarked)	-2.3
COc1ccccc1CN[C@H]1CCCN[C@H]1c1ccccc1	2.48
CC1(C)CCC(C)(C)c2cc(C3(c4ccc5cc(C(=O)O)ccc5c4)SCCS3)ccc21	2.25
CN1CCc2cc3c(cc2C1O)OCO3 (centres unmarked)	2
CCN(CC)Cc1nccn1-c1ccc([N+](=O)[O-])cc1C(=O)c1ccccc1Cl	2.42
O=C(O)[C@@H]1C[C@H](CP(=O)(O)O)CCN1	-5.26
O=C(NCCCN1CCOCC1)c1ccc(Cl)cc1	0.93
Cc1ccc(C23CNCC2C3)cc1 (centres unmarked)	-0.33
Cc1cc(Nc2nc(N[C@@H](C)c3ccc(F)cc3)c(C#N)cc2F)n[nH]1	-1.72

Block 3
Cell line: HEK-293T/ACE2
Observed: pseudovirus infection
Organism: VSV pseudotyped with SARS-CoV-2 spike
Tested at: 10 µM
Time: 16 h
Reference: vehicle-treated
Structure (SMILES)	GFP-positive cells [%]
COc1ccc(Cl)cc1C(=O)NCCc1ccc(S(=O)(=O)NC(=O)NC2CCCCC2)cc1	65.2
Cc1cc(C)cc(OCC2CNC(=O)O2)c1 (centres unmarked)	59
CC(=O)N(O)CCCCCNC(=O)CCC(=O)N(O)CCCCCNC(=O)CCC(=O)N(O)CCCCCN	62.1
Cn1c(=O)cc(N2CCC[C@@H](N)C2)n(Cc2ccccc2C#N)c1=O	90.5

Block 4
Target: RING finger protein unkempt homolog, zinc fingers 1-6, GST-SBP tag (UNK, Homo sapiens, UniProt Q9C0B0, residues 30-357)
Sequence of UniProt Q9C0B0 (30-357, looked up): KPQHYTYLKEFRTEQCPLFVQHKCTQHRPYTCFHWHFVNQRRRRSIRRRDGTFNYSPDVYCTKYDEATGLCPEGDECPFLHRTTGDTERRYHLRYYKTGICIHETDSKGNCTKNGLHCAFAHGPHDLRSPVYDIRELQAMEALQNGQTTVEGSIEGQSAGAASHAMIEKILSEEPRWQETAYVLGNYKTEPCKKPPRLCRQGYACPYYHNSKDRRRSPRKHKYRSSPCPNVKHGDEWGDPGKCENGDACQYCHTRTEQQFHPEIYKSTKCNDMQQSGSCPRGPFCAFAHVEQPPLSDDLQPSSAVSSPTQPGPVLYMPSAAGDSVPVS
Method: RNA Bind-n-Seq
Form: RNA
Sample: in vitro
Tested at: not given
Notes: RNA with constant flanks, human and mouse sites, ends assumed
Reference: input RNA pool
Direction: higher = stronger binding
Constant ends, left off below: GGGAGUUCUACAGUCCGACGAUC … CAACAGAGGAUUGAGCAUCA
Sequence	bound/input enrichment
CUGAGAGAGCUGACAUCCCAGCAUCCUUACGCAGAAGUCUUCAUCGGCCGGCCACACGUCUGGACUGUGGAUCUCAAUAACCGAGAGGAAGUAGAAGAUGCAGUAAAAGCCAUCUUAAAC	0.18 ratio
CAAGGAAUGUUUCGGCAGGGAAGCUGGCCCGAGGCUGCGGGUGGCAUCUGAAGGCACUGGUAGGUGUGGAAGAGGCCCCACAGAUGCCAGACUGCACCAAGAAUUAGUAUCUUUCACAGC	0.942 ratio
CUGAAAAACACAGAUAUCAAAGUUGUUGACUUUGGAAGUGCAACGUAUGAUGAUGAACAUCACAGUACUUUGGUGUCUACCCGGCACUACAGAGCUCCCGAGGUCAUUUUGGCUUUAGGU	0.323 ratio
UUUGUCACGUGCCCGGAUAUAGGAAGUGUUGGGGGAACGGCCGCUUCCCGUUCAACGCUUUAUUGAGGGGCGUAUCCUAGUGGCCCCCAUCCGGUCUCCGUUUUGGAAGACCCGCCUCGG	0.141 ratio
AUCAUCAAAUACAUCGUUAAUCGAGGAGAACAUAAAAAUGGUGUCCUAGAAGAGGCGAUAAUUGCAACAAUUCUUAAGGAGGUUUUGGAAGGUUUAGACUAUCUGCACAGAAACGGUCAG	0.238 ratio
UCAAGGCUGAGAAAAGAGAAUGAUCUCUUUGAUAACUACAUGCAGCAGGAUGCUCAUGAAUUUUUAAAUUAUUUGCUAAACACUAUUGCGGACAUCCUUCAGGAGGAGAAGAAACAGGAA	0.428 ratio
GUGGAGCCGGUGGAUGCUUCCGGCACGGAGAAAGCGUUCGAGCCAGCCACCGGCCGAGUGAUUGCCACUUUCGCGUGUUCAGGAGAAAAGGAAGUAAACUUGGCCGUUGAGAAUGCAAAG	0.102 ratio
CUUGGUGGAGAGUGUGUGACCGGUCCUGUUGGGUUGCUUUCAAUAUUGUCUCCUCACCCUCUGGUGUUGAUUCGACACUUCUUUUCCGUUGCAAUCUACGCCACGUAUUUCUGCUUCAAA	0.151 ratio

Block 5
Target: Replicase polyprotein 1ab, main protease (rep, Severe acute respiratory syndrome coronavirus 2, UniProt P0DTD1)
Observed: enzyme activity
Mode: inhibitor
Tested at: 20 µM
Notes: hit confirmation
Structure (SMILES)	inhibition
NC[C@@H]1O[C@H](C23CC4CC(CC(C4)C2)C3)Cc2c1ccc(O)c2O	96.1%
CCCOc1ccc(CSc2nnc[nH]2)cc1	69.8%
CCOC(=O)C1=C(N)Oc2ccc(Br)cc2[C@H]1[C@H](C#N)C(=O)OCC	33.3%

Block 6
Target: Protein C-ets-1 (ETS1, Homo sapiens, UniProt P14921, residues 1-441, K379A, full length assumed)
Method: protein-binding microarray
Form: double-stranded DNA, one strand shown
Sample: in vitro
Tested at: not given
Notes: k-mer, scored over probes, only values ≥0.25
Direction: higher = stronger binding
Construct (chain): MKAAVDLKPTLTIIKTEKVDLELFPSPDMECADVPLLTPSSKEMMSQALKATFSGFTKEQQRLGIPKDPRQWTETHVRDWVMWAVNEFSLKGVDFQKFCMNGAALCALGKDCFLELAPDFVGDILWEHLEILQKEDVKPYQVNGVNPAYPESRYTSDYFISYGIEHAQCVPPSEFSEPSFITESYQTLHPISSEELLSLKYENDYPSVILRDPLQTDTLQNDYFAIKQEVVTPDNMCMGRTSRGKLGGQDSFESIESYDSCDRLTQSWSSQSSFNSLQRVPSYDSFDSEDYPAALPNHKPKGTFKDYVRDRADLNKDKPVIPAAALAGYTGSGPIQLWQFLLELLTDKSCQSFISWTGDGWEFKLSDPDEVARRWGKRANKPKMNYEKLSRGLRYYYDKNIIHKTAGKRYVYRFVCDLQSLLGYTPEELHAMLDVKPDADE
Sequence	E-score
GTAATACA	0.262
TACTGTAA	0.291
CCGGCGCC	0.344
CCGGTGAG	0.27
ATGTTTCC	0.26

For quick reference, copied from above (block 2):
Compound	inhibition [%]
O=C(c1ccc(F)c(F)c1Nc1ccc(I)cc1F)N1CC(O)([C@@H]2CCCCN2)C1	-7.21
O=C(O)Cc1ccc(-c2ccccc2)cc1	-1.74
Oc1c(I)cc(Cl)c2cccnc12	-6.45
